# Results gathered from unrelated publications.
# A part holds a random share of what one study measured. Changes are numbered by the printed parent chain.

# Set 1 — technique: RNA Bind-n-Seq; form: RNA; medium: in vitro; tested at: 365 nM; relative to: no-protein control; reading: higher = stronger binding
# Target: RNA binding protein fox-1 homolog 2, RRM domain, GST-SBP tag (RBFOX2, Homo sapiens, UniProt O43251-10, residues 100-194)
# Notes: natural RNA segment, single round, ends assumed
# All sequences stand within: GGGAGUUCUACAGUCCGACGAUC … UGGAAUUCUCGGGUGCCAA
# Residues (chain): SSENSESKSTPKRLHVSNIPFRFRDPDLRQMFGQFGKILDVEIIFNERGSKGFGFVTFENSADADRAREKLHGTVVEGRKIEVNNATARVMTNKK
Oligonucleotide,RBNS enrichment (R)
CAGACACAAACAGGCCCAUAGCCUCUCCUCUGCUGUUAGAGCAAUGCAGCUGGGCCCAGAACACCCAUGAUGAGGUUCACUGCGUCUACCCUGCACCUCGCACAGAACCA,0.654
CCCACUGAGUUCAGGUCAUUUGAGUUAAAACAAAAAAAAAAAUCCUCUGCUGCACAUUUUGUUUAAGUGUUAACUGUUUCUGCUAUUAAUGUUGGAAACACAAAUAGUGC,0.776
GGGGCCCACCCUGCUCCCUGUUCCUGCUAGGGCCUGCCAGUGCCCCUGAGCUUGCUUUCCACAUUCUCCCAGGGUAUGGAGACCUAGACCUGUCUUUGGGGCCAUUAGCA,0.749
CACCAGCGUCUGUCUUAAAGGUAGGGCCAAUUUCAUGGAGCAUUUUUCUGUGUGUGUCCUUGUUGCUUUUGCCAGAAAAAGUGGAUUUGACAUGCGUGCCCCGAUGCCAC,0.725
CUGAGAGGUAACAAAUGGGAUAUGGGUUGAGACUGCAUAAAAAACGUACUGCUGGUUGAAUAUCUGAGGUAAAUGAUGUUCAAUCAAGAUGCUACUUGUAUCAUUUUGCC,0.37
CGAGAAGCCUUACAAAUGUGAGGUUUGCAGCAAGGCCUUUUCCCAGAGCUCUGACCUCAUCAAACACCAGCGCACGCAUACAGGCGAGCGGCCCUACAAGUGUCCCAGGU,0.397
UCAGAGUAAACUGCCUUGUCUUCCUCAGGUUUUGGAGCCCUGUGAGUUCAAUAAACCUUUUAUGUGGAAGAGAUUCGUCCUUAAGAUGUGUAUGUGGACAGUUCCCUGAG,0.616
GUCCGGCUCUGCGUCUCCCUCUCUGCAGCCUGUGUAAGCUAUUAUAAUUAAAAUGGUUUUCCGGGAAGGGAUGAGUGUGAUGUCCUUGAGAGGAAAUGAAUGUCCUGGCC,2.13
CCUCCUUUGAAUUGAAAUGGCACAUUAAGACUUGUCACGGCUUCUCACUGGGACUGGAGACCUCGUUCCUUCACCCCGCGUGUCGCCAGCCUCUGGGUCCAGCCAGAGCC,0.446
UGCUCAUCAGCCGCAACUUCCUGCCGACCCUGAUGCGGGUGGGCCGAGCAGUGUGGACAUCAGCCACUUUUUAUAUUCAUGUACAUUCACCUGGGGAAAAAAACGGAGGG,0.441
GCAAGCUCAGGGAAGGAUCAUUUCUGGUGAUAAUUCCAUUCACUUUGCACUUUGAUGGGCAUUAAAAAAAAUAGCCCUCACAAGAUAGUAACCUCAAAUUCCUGUUCUUG,0.248
AGCUUUUUGCGGGUACAGAGCAGGCUUUGGGGGGUAACCAGCUAGCUGCUGCUAGGCCUUUAUUCCCAGGGUUUGGCUGCAUUGGCAGUGAGGCAGGUGGCUGGGGGUGA,0.321

# Set 2 — technique: RNA Bind-n-Seq; form: RNA; medium: in vitro; tested at: not given; relative to: input RNA pool; reading: higher = stronger binding
# Target: RING finger protein unkempt homolog, zinc fingers 1-6, GST-SBP tag (UNK, Homo sapiens, UniProt Q9C0B0, residues 30-357)
# Notes: RNA with constant flanks, human and mouse sites, ends assumed
# All sequences stand within: GGGAGUUCUACAGUCCGACGAUC … CAACAGAGGAUUGAGCAUCA
# Residues (chain): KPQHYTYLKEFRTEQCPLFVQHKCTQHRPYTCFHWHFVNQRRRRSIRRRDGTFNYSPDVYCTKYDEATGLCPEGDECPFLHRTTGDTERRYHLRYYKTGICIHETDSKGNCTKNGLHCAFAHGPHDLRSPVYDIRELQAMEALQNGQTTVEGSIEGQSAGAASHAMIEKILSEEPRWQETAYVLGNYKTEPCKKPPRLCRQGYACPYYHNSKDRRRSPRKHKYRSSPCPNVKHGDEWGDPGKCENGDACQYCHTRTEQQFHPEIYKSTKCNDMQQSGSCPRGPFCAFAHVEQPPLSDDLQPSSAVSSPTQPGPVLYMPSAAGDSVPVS
Oligonucleotide,bound/input enrichment
GACCUAUAUCACAAAGGCCUCCUUAAAUUUUCACUGGAUGCCGUAUCUCUGAAGGAUACUCUAGUUAUGCUGGUUGUUGACAUGUCAAAGCCUUGGACUGCUUUGGAUUCUUUACAGAAA,0.4 ratio
UAAAGCAGGUUCAAAAACACAUGAACUGCAGAUGCCAUAGGCCUCAAAUCAGCUGUAAUUCUAGGAGACACGUGUUGAUCUAGUUAUCUAACAUUGUUGUUAUAAGAAAAUGAGUUUACU,0.19 ratio
GGUGACGUGGUUCCGGUUGGACAGAGGAGAGCGUGGUGUUGGUGCAUGUGUUUCGGACUGGCCUUCAUGCUUGCUGGCGUCAUCCUCGGAGGGGCGUACCUGUACAAGUAUUUUGCUCUU,0.369 ratio
GAGCAUAGCAAGACUCCUGAGGAGAGGAACCUCACUUCCAGCCCGGCAAUGAAUGGGGACCUAGCUAAACUGGCUUGCUCUGAAGCACCUACCGACGUUUCCAAGACCUGGGUCACCUCA,0.146 ratio
UAUUUUCUAUUUAGUCUGUAUAUUUUGUUCUUCAUAGUCUGUUUUUUCUAGCAUGCUUGAUUUAGGAGAGAAUAAAGGGCUAUAUAAUAAUAAAUCCAGAUUUCCGGAUAAGAAUAUUGC,4.42 ratio
CUCUCCCGGAUUCACCCCGUGUCUACCAUGGUGAAGGGAAUGUACGGCAUUGAGAAUGAAGUCUUCCUCAGUCUCCCGUGCAUCCUCAAUGCUCGGGGGCUGACCAGCGUCAUCAAUCAG,0.0628 ratio
CUCUUGCUGCUGCUGCUCUGCAUCCAGCUCGGGGGCGGACAGAAGAAAAAGGAGAACCUUUUGGCUGAAAAAGUGGAGCAGCUGAUGGAAUGGAGUUCCAGGCGCUCGAUCUUCAGAAUG,0.146 ratio
AAUCAUGUGGGAAAGCCGUUACUGAAGAAGCCGAUGGGACCAGCCCACUGGGAAAAGAUAGAAGCCAUUAACCAAGCCAUAGCCAAUGAAUAUGAAGUCCGGAGGAAGCUGCUAAUCAAA,0.885 ratio
ACCCCAGAGCGAAUGGCGGAGGCUGGCUUCAUCCACUGCCCUACCGAGAACGAGCCUGAUUUGGCCCAGUGUUUUUUCUGCUUUAAGGAAUUGGAAGGCUGGGAACCCGAUGACAACCCG,0.0526 ratio
UCCAUCACGAAGAAUCAAUGGCUGUUAACACCUAGCAGGGAAUAUGCCACCAAAACAAGAAUUGGGAUCCGGCGUGGGAGAACUGGCCAAGAACUCAAAGAGGCAGCAUUGGAACCAUCG,0.104 ratio
UUCUCCACUUUUUAUUGAUGAUUUAAAACACUCUAGUCUUCCCCUCAAAUCAUGCAUGCAAAUAGGAGGACAGUGGUGGUGACUCAACUGGAUACAGGUGCUCAAUAGUCAGGCUUGAUA,0.484 ratio

# Set 3 — technique: protein-binding microarray; form: double-stranded DNA, one strand shown; medium: in vitro; tested at: 2540 nM top; notes: 60-bp whole probe; added: salmon DNA 0.4 mg/ml; relative to: random background probes; reading: higher = stronger binding; all sequences stand within: GCCTAGCAC … GTCTTGATTCGCTTGACGCTGCTG
# Target: Interferon regulatory factor 3, full length, phosphomimetic (IRF3, Homo sapiens, UniProt Q14653, residues 1-427, S386D/S396D/S398D/S402D/T404D/S405D)
# UniProt Q14653, sequence (whole entry, unmodified, looked up): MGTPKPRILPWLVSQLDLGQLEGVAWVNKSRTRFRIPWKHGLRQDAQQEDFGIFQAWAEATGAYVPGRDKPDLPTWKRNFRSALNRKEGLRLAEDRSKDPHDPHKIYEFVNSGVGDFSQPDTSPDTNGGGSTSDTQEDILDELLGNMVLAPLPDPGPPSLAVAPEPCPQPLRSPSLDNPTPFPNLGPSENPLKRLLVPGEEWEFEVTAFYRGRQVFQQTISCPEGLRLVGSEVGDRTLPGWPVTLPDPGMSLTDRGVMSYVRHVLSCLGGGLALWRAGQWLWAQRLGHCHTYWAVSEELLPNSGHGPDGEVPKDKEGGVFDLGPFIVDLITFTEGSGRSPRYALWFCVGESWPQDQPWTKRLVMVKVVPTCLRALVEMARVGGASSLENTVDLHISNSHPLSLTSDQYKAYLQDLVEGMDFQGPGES
Oligonucleotide,fitted relative affinity
GACAGTCTCGGTTTCGGGACGTGCTAG,4.36 z-score
TCACATTTGGAAAATGTAACTGTGCTA,0.988 z-score
TTAGCTCTCCTTTTCCTTTAGTGCTAG,4.04 z-score
TTAGATTTCCTTTTCCTTTAGTGCTAG,8.12 z-score
TTATATTCCAGTTTCGATTAGTGCTAG,4.63 z-score
TTTGTCATCTATAATGGATATGTGCTA,0.62 z-score
TCTGATTTTGCTTTCATTTAGTGCTAG,1.49 z-score
GACGGTTTCGACACTGGGGACGTGCTA,3.12 z-score
TTAGGTATCCTTTTTCTTTAGTGCTAG,8.04 z-score
TTAGGTATCAGTATCGATTAGTGCTAG,3.85 z-score
TTAGATTTCAGGCTGGATTAGTGCTAG,-0.0139 z-score
TTAGAAATGGGGACTGGATTAGTGCTA,-0.457 z-score
TCATTATGCTCTTTCTAACTGTGCTAG,1.15 z-score
GACGATCTCAGTCTGGAGACGTGCTAG,0.378 z-score
ATACCTTAGGTTTTCTGGTTGTGCTAG,0.344 z-score
GACGGACTGCGTATCCTGACGTGCTAG,-0.0429 z-score
TTAGGCATCGGTATCGGTTAGTGCTAG,1.7 z-score
TCATATATATAATATATAACTGTGCTA,0.557 z-score
GACGATCTCGGGACTGGAGACGTGCTA,0.0264 z-score
GACGATCTCAGACCGGAGACGTGCTAG,0.407 z-score

# Set 4 — target: CCNB1, cyclin fold, Cln2 fusion (human); technique: yeast growth competition, sequencing; medium: yeast; notes: weak parent motif; relative to: not given; reading: higher = stronger binding
# Starting sequence: RB1 docking peptide (human); PKPLKKLRFDIEG
Substitution,normalised enrichment score
K2N,0.817
K5C,-0.165
K5P,0.4
K6C,0.912
P3N,0.278
R8Q,0.19
P1T,0.939
L4Y,0.913
P1G,0.438
F9V,0.569
F9A,0.228
L4H,0.569
K5G,0.461
K6E,-0.611
G13E,0.634
L4T,0.632
L7I,0.381
I11E,0.528
L7G,0.389
P3W,1.07
R8F,0.706
D10Y,-0.246
D10Q,0.281
D10F,0.203
K2S,1.13

# Set 5 — technique: protein binding microarray; form: double-stranded DNA, one strand shown; medium: in vitro; tested at: not given; relative to: not given; reading: higher = stronger binding
# Target: Histone acetyltransferase KAT6A, winged helix 2, GST fusion (KAT6A, Homo sapiens, UniProt Q92794, residues 85-181)
# Notes: 8-mer, flanks averaged, mean of 2 arrays, mostly near background
# Target sequence (chain): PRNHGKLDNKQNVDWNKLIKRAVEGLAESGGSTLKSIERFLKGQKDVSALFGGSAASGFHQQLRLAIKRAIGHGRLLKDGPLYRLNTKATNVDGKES
Oligonucleotide,E-score
AGGTAGAG,-0.103
ACGCTAAT,-0.16
ATGGTTCG,-0.0987
AAGGGACA,-0.0112
CGAAGTAA,0.0697
CTCGGCTA,0.136
TACAGGTA,-0.112
AATGTAAT,0.015
AGAGCCGC,0.0538
GAGCCGGA,0.256
ATCACCGG,-0.0925
CTCAGAGA,0.14
GGTTTAGA,0.00957
ACGCAAGG,0.0671
GAATTGGC,-0.162
ACAGTCTA,-0.208
CGGCATGA,0.146
CATCTTGG,-0.0636
CAGCAGGA,0.0742
AGCTCGCC,0.195
GAACGGCC,0.0275
ATTCGGAC,0.133
ACGGGAAG,-0.23
CCATGGAC,-0.123
AGCCCCCA,-0.0455

# Repeated from above (set 3):
Oligonucleotide,fitted relative affinity
GACAGTCTCGGTTTCGGGACGTGCTAG,4.36 z-score
TCACATTTGGAAAATGTAACTGTGCTA,0.988 z-score
TTAGCTCTCCTTTTCCTTTAGTGCTAG,4.04 z-score
TTAGATTTCCTTTTCCTTTAGTGCTAG,8.12 z-score
TTATATTCCAGTTTCGATTAGTGCTAG,4.63 z-score
TTTGTCATCTATAATGGATATGTGCTA,0.62 z-score
TCTGATTTTGCTTTCATTTAGTGCTAG,1.49 z-score
GACGGTTTCGACACTGGGGACGTGCTA,3.12 z-score
TTAGGTATCCTTTTTCTTTAGTGCTAG,8.04 z-score
